Published values gathered from unrelated publications.
Numbered parts are unrelated; each lists some results of a single study. Substitutions count along the parent as printed.

Series 1 — technique: RNA Bind-n-Seq; molecule type: RNA; medium: in vitro; concentration: 365 nM; reference: no-protein control; direction: higher = stronger binding; quantity: RBNS enrichment (R)
Target: RNA binding protein fox-1 homolog 2, RRM domain, GST-SBP tag (RBFOX2, Homo sapiens, UniProt O43251-10, residues 100-194)
Notes: natural RNA segment, single round, ends assumed
Constant ends, left off below: GGGAGUUCUACAGUCCGACGAUC … UGGAAUUCUCGGGUGCCAA
Target sequence (chain): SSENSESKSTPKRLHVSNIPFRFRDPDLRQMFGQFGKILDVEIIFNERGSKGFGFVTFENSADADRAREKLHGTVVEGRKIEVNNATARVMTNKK
Sequence = CUGAGGACACAGCCAGUUUCUUCAGCACCUCCACAAACUGCACCCCGUCUCUGUCCAUGCACCUCGAUUCACGGCGAGACAUUUAGCCACCACUCUCUGCGUAUUGAUGG; result = 0.296
Sequence = UUUUUAAGAAUUCUGUACUUCCAAUUUAUAAUGAAUACUUUCUUAGAUUUUAGGUAGGAGGGGAGCAGAGGAAUUAUGAACUGGGGUAAACCCAUUUUGAAUAUUAGCAU; result = 0.637
Sequence = CCAGUUUCUAUGGCCUUGCUGUGGACUUUCCCCUCUUUGUCGGUAACCUUUCGCCUAUGGCUUACAGUUCGACAUUUAAUUUAUUAGCGCUGCUCUGCACCCCUCCUGCC; result = 0.892
Sequence = UUUAACAAGGAUAUUUAUGUAAUAAGAAACUUUGCCUUAGGCAGGUGUUGGCCAGAAAAGUCCAGAUUCCUCUGGGAUCCCACCCUGGCCUCUCCUGGAACUCUGAACCU; result = 0.177
Sequence = GGAAGGAAGAAAUGCGUUUAGAUCUUGGAUGCAGACCUUUCAAAGGGUUAAAUGUAACCAUAUGGAUCAACCACAUGCACAUCCUUACUACAGAAUCCGUCCUUUCAUUU; result = 0.218
Sequence = CUUUCAUCCUGGAUUCUUAGGUGGGAAUCAGACACUUAGAAAGAUGUUGGGUCAAGGUUCUAGGAGCAGGACAGAGUGUUCCUGUCAUAGUACACACUAAGUUUCCCACU; result = 0.353
Sequence = GACGGGCGGGACAGCAGGUCAGUGGAUCUUCACCGGAAGGUGCAGCUUCUCGGCAUCAGCGCAGCUGCACCACAGGCUGAGCUUACAGAGCUUCAGGCCCAGACUGGGGC; result = 0.267
Sequence = AUCUGACUACCCCUGAAUCCACCCAGAAAGGGGGCCCAACACCCUUGUCCAUUUAUGGGUAUUUUUUUUCGAAGUUAUUAAGCAUAUUCCUUUUCCACGAACCUCUUCUG; result = 0.717
Sequence = AAUAGAAUAUUUAAGCUGUGACUGUAAGAAAUAAACAAGAGUAAACUGACAGGCCUUCCUUCACGUGGGGUCUCAGUGGUGGCCUACCAUGACAGCUUGGUCAGUGUGCC; result = 0.376
Sequence = GCCCUUGGGCCACCCCUCCUAGUUUGGGAGGAGCAGAUUUUUGCAAUACCAAGUAUAGCCUAUGGCAGAAAAAAUGUCUGUAAAUAUGUUUUUAAAGGUGGAUUUUGUUU; result = 0.419
Sequence = GAAAGGCCAUCUUCCCACUGUCCUGCCAGCAGCUGUUCUGGGUAGCAGCAAUUGCAGAGUGACCAGUGAACUUUAUGGACUUAGCUGACAACUCCUAGAACAUGUGCACC; result = 0.261
Sequence = UUUGUACUCAGCUAGCUUUGAUUUAAUGUACCACUGCUUUGUCUUUCUGUUACACAUAUGGUUUUGAUUUAUUUACAAUAUAUGCUGUGCCAUUUUGAUUUUUAUUUUGG; result = 0.761

Series 2 — technique: universal PBM; molecule type: double-stranded DNA, one strand shown; medium: in vitro; concentration: 600 nM; direction: higher = stronger binding; quantity: E-score
Target: Sal-like protein 4, full length isoform A (SALL4, Homo sapiens, UniProt Q9UJQ4, residues 1-1053)
Chain of UniProt Q9UJQ4 (whole entry, looked up): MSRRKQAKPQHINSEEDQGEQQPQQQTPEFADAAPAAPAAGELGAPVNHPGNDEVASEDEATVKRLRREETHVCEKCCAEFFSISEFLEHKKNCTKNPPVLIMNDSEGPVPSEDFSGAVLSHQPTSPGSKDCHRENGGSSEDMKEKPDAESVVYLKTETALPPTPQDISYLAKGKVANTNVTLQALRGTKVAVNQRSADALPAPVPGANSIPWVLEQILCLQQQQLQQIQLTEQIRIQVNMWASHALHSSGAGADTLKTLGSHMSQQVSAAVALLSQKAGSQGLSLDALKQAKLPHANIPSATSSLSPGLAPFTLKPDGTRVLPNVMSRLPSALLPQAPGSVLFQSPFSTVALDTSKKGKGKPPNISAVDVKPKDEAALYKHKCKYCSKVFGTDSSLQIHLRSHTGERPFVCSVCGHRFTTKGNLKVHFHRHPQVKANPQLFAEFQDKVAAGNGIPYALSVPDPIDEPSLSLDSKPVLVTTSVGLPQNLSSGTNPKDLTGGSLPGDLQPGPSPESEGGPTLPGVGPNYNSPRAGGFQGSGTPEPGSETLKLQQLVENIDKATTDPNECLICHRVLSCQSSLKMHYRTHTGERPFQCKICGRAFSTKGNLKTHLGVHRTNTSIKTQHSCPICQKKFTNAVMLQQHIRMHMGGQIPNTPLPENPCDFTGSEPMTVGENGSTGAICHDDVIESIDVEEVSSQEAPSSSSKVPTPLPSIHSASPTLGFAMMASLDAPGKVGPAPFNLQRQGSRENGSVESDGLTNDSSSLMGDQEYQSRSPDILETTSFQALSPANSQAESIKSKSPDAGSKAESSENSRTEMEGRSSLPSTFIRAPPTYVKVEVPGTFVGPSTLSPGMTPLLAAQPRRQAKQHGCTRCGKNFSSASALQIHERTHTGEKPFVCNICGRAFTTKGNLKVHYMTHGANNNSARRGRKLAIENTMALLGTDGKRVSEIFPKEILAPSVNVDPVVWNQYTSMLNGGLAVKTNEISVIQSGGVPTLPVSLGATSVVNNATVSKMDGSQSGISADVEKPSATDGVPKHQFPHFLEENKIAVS
Notes: 8-mer, flanks averaged, mean of replicates
Sequence = CCGTCCCG; result = -0.277
Sequence = CACCAGAA; result = -0.0301
Sequence = TTGAAAAA; result = 0.336
Sequence = AAATTTTC; result = 0.281
Sequence = GCCTCTAC; result = -0.234
Sequence = CTTGCTAC; result = -0.0162
Sequence = CCCAAAAG; result = -0.141
Sequence = CAACGGTG; result = -0.354
Sequence = CAGTGTCC; result = -0.178
Sequence = CCTGGTCG; result = -0.286
Sequence = ACTGTAGC; result = -0.035
Sequence = GGGGCAAA; result = -0.172
Sequence = AAGAGGCA; result = -0.0551
Sequence = AATCCCCG; result = -0.125
Sequence = ACTATTGG; result = 0.0501
Sequence = CATTCTTA; result = 0.158
Sequence = ACTCGTTA; result = 0.118
Sequence = ATCGATCC; result = -0.0791
Sequence = AGCACGGA; result = -0.209
Sequence = CGTACTCC; result = -0.205
Sequence = CAAGCCAG; result = -0.166
Sequence = CTCTAAAG; result = -0.0529
Sequence = ACAAGTCG; result = -0.0724
Sequence = AGCAAACC; result = 0.0124
Sequence = GGCCATGA; result = -0.224

Series 3 — target: CCND3, cyclin fold, Cln2 fusion (human); technique: yeast growth competition, sequencing; medium: yeast; notes: weak parent motif; reference: not given; direction: higher = stronger binding; quantity: normalised enrichment score
Starting sequence: LLGL2 docking peptide (human); KSLKKSLRQSFRR
Substitution = ASLKKSLRQSFRR [K1A]; result = 0.0144
Substitution = KSLKASLRQSFRR [K5A]; result = 0.217
Substitution = KSLKKSLRQSFAR [R12A]; result = 0.491
Substitution = KSLKKSARQSFRR [L7A]; result = 0.253
Substitution = KSLKKSLRQSFRA [R13A]; result = 0.443
Substitution = KSLAKSLRQSFRR [K4A]; result = 0.445
Substitution = KSLKKSLAQSFRR [R8A]; result = 0.691

Series 4 — technique: RNA Bind-n-Seq; molecule type: RNA; medium: in vitro; concentration: not given; reference: input RNA pool; direction: higher = stronger binding; quantity: bound/input enrichment
Target: RING finger protein unkempt homolog, zinc fingers 1-6, GST-SBP tag (UNK, Homo sapiens, UniProt Q9C0B0, residues 30-357)
Chain of UniProt Q9C0B0 (30-357, looked up): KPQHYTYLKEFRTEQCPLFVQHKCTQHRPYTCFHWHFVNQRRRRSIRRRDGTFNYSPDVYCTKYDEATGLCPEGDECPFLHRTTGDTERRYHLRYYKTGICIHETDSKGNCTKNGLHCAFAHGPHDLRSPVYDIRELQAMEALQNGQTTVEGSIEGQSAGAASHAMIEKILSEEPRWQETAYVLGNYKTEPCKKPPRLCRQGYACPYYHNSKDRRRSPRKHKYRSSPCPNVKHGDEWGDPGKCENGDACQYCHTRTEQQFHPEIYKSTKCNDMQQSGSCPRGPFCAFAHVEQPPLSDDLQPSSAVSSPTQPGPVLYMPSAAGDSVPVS
Notes: RNA with constant flanks, human and mouse sites, ends assumed
Constant ends, left off below: GGGAGUUCUACAGUCCGACGAUC … CAACAGAGGAUUGAGCAUCA
Sequence = AAAGAGGCAAAACCUGAUGAAUUAAUGGAUUCCAAAUUGAGAUGCGUAUUUGAAAUGCCCAAUGAAAAUGAUAAAUUGAAUGAUAUGGAACCUAGCAAAGCUGUUCCACUGAAUGCAUCU; result = 0.187 ratio
Sequence = GAAAUGUUAGCACACAGAGCAGUGCUAGCUUGCUGCAGUCCCUAUUUAUUUGAAAUCUUUAAUAGUGAUAGUGAUCCUCAUGGAAUUUCUCACGUUAAAUUUGAUGAUCUCAAUCCAGAA; result = 1.75 ratio
Sequence = CAAAACAUUUACCCAAAACCUGUUACAGAAAUAGCAAAGCCAGUAAUACUAAAUACCACACAAAUUCCAAAGAAUGUUGCUACAGAGACACAAUUGAAAGGUGGUCAGCAUUCUCAAGCU; result = 1.29 ratio
Sequence = AUUGGCACCAACUUCCAGCUGGGGCUGAAGGACGGCAUCAUAUUGUGCGAACUCAUAAACAAGCUACAGCCAGGCUCUGUGAAGAAAGUCAACGAAUCCUCACUAAAUUGGCCCCAGUUG; result = 0.103 ratio
Sequence = UGUAGUUUCUUGAUUUAUCAUUUUUCUCUUUUCUUUCUUUCCUUUAGGAAAAGCCUAAAGAUUAGGUUGUAAGAAAAACAGAAGCCAUGUUUCGAAGACCUGUGUUACAGGUAUUUCGUC; result = 0.153 ratio
Sequence = CCUCUUUUAAAGCAGGUUGUGUACAACAUUCAGUACACUGAAGGCAUAAACCUUCCACUCUUGAACAAAGCAGCUGCUUUUUAAAAGCGAGAAAAAGGAAAACGGGGCACAGGCCAUUCG; result = 0.259 ratio
Sequence = GGAGACAAGUGCACUAAAUCUUUACCUUAUGAACCUUACAAGGCCCUCCAUGGGCCUCUGCCUCUUUGUCUUCUUAAAGGUAAGAGGGCUCACUCCAAAUCUCUGGACUACCUCAAUCUA; result = 0.18 ratio
Sequence = GACGAUGAAACAGUUGAUAGCUUAGGCCCCCUGGAAAAAGGACAAGUGAAAAAUGAGGCGCUUAGAGAAUUGAGAGUGGAGCUCAGCAAAAAACACCAAGCUCGAGAACUUGAUGGAUUU; result = 0.623 ratio
Sequence = AAAGGCAAAAUAACAGCAGGGAAACACAGACGACUGACUCGAAAAAGUAGCACAAGCAUUGAUGAAGAUGCAGGAAGACGUCACUCAUGGCAUGAUGAAGACGAUGAAGCAUUUGAUGAA; result = 0.744 ratio
Sequence = UAAAGUGUAUUCUGUACAUAAUUUACAAAUAAAACAUUUUAUUUUAAUUGUUACUUAUUAUUUAGAUAUUUCUCAACACUUAAAUUCAUAAAAUUAAGACCAUGUAAGGGUAUGUUUUUA; result = 1.27 ratio
Sequence = ACACAGGAAUAAGCUUUCUUCUACCAAACACAUUCCCCCAUCUGGAGGGAGAGCUCCCCUAGUCCCUCCCCGCCCUCUGUCAUUUUGUUAAUGACAGGAUAGGCUGCUCCUGUGACUUAC; result = 0.707 ratio

Series 5 — technique: RNAcompete; molecule type: RNA; medium: in vitro; concentration: 20 nM; notes: 7-mer, probes averaged, single round; reference: mean of 7-mers; direction: higher = stronger binding; quantity: 7-mer Z-score
Target: PABPC1L2, full length, GST fusion (mouse, UniProt A0ABA7IW68)
Target sequence (chain): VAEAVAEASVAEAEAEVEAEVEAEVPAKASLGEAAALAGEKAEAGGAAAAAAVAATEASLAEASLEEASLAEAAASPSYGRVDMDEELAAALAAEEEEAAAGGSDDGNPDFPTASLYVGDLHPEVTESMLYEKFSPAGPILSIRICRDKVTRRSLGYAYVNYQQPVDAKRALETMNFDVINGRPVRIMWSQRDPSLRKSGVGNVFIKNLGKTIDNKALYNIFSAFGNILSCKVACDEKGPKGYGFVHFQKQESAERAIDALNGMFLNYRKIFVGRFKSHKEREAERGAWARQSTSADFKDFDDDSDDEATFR
Sequence = CAGAUUU; result = -0.13
Sequence = GUAUCGG; result = -0.0246
Sequence = AGACCAG; result = -0.188
Sequence = UAAACUA; result = 0.68
Sequence = CCGGCAU; result = -0.296
Sequence = GAGGCCC; result = -0.202
Sequence = AAGUUGA; result = 0.274
Sequence = CGGACCG; result = -0.202
Sequence = CACUACA; result = -0.0156
Sequence = GGUUAGG; result = 0.0787
Sequence = GUGGUUC; result = -0.0645
Sequence = UAGAUCG; result = -0.144
Sequence = AUAGCUC; result = -0.296
Sequence = AGUCUAG; result = -0.0772
Sequence = CUGGCAA; result = 0.122
Sequence = GUCUUCU; result = -0.463

Series 6 — target: OGT, full length, His-tagged (human); technique: phage display, sequencing; medium: in vitro; concentration: 1 µg OGT; reference: input library; direction: higher = stronger binding; quantity: fold enrichment; starting sequence: peptide; NSEYMPQYQIIFAHQ
Notes: single substitutions, 15-mer displayed peptide, unchanged parent 16.7
Substitution = Q15N; result = 15.7 fold
Substitution = F12S; result = 1.5 fold
Substitution = Q7K; result = 18.2 fold
Substitution = F12A; result = 3.15 fold
Substitution = Q9T; result = 7.02 fold
Substitution = Q7Y; result = 7.11 fold
Substitution = N1K; result = 12.9 fold
Substitution = I10L; result = 2.56 fold
Substitution = F12P; result = 14.9 fold
Substitution = M5P; result = 7.75 fold
Substitution = I11A; result = 0.945 fold
Substitution = I10R; result = 0.365 fold
Substitution = H14F; result = 5.86 fold
Substitution = E3K; result = 17.6 fold
Substitution = Q7E; result = 4.91 fold
Substitution = P6H; result = 0.951 fold
Substitution = S2P; result = 21.1 fold
Substitution = I10S; result = 0.385 fold
Substitution = H14L; result = 9.48 fold
Substitution = N1A; result = 15.4 fold

Further values, each from its own experiment
Substance = PhoQ, residues 284 288 289 292 302 303 SLKLQV; target = PhoP, residues 12 14 15 18 19 NHFIF (Escherichia coli, UniProt P23836); assay = Sort-seq, item: YFP reporter; test system = E. coli; setting = PhoQ-PhoP variant library, together with: 10 µM Mg2+; scale = reference: high Mg2+ state, higher = stronger signaling; quantity = fold induction; result = 2.66

A few entries again (series 5):
Sequence = AGACCAG; result = -0.188
Sequence = UAAACUA; result = 0.68
Sequence = CCGGCAU; result = -0.296
Sequence = GAGGCCC; result = -0.202
Sequence = AAGUUGA; result = 0.274
Sequence = CGGACCG; result = -0.202
Sequence = CACUACA; result = -0.0156
Sequence = GGUUAGG; result = 0.0787
Sequence = GUGGUUC; result = -0.0645
Sequence = UAGAUCG; result = -0.144
Sequence = AUAGCUC; result = -0.296
Sequence = AGUCUAG; result = -0.0772
Sequence = CUGGCAA; result = 0.122
Sequence = GUCUUCU; result = -0.463
